Results of several laboratories.

CO[C@H]1C[C@@H]2CC[C@@H](C)[C@@](O)(O2)C(=O)C(=O)N2CCCC[C@H]2C(=O)O[C@H]([C@H](C)C[C@@H]2CC[C@@H](OC(=O)NCCOCCOCCOCCOCCOCCOCCOCCOCCC(=O)N3CCc4cc(Cn5nc(-c6ccc7oc(N)nc7c6)c6c(N)ncnc65)ccc4C3)[C@H](OC)C2)C[C@@H](O)[C@H](C)/C=C(\C)[C@@H](O)[C@@H](OC)C(=O)[C@H](C)C[C@H](C)/C=C/C=C/C=C/1C
Neutropenia AE leading to dose reduction (patients with advanced solid tumours; intravenous, dose not given, grade ≥3): 1.8%

CC[C@H](C)[C@H](NC(=O)[C@H](Cc1ccccc1)NC(=O)[C@H](CCC(=O)O)NC(=O)[C@H](CCCNC(=N)N)NC(=O)[C@H](C)NC(=O)[C@H](C)NC(=O)[C@H](CCC(N)=O)NC(=O)[C@H](CCC(=O)O)NC(=O)[C@H](CCC(=O)O)NC(=O)[C@H](CC(C)C)NC(=O)[C@H](Cc1ccc(O)cc1)NC(=O)[C@H](CO)NC(=O)[C@H](CO)NC(=O)[C@@H](NC(=O)[C@H](CC(=O)O)NC(=O)[C@H](CO)NC(=O)[C@@H](NC(=O)[C@H](Cc1ccccc1)NC(=O)[C@@H](NC(=O)CNC(=O)[C@H](CCC(=O)O)NC(=O)[C@H](C)NC(=O)CCc1cnc[nH]1)[C@@H](C)O)[C@@H](C)O)C(C)C)C(=O)N[C@@H](C)C(=O)N[C@@H](Cc1c[nH]c2ccccc12)C(=O)N[C@@H](CC(C)C)C(=O)N[C@H](C(=O)N[C@@H](CCCNC(=N)N)C(=O)NCC(=O)N[C@@H](CCCNC(=N)N)C(=O)N[C@@H](CCCCNC(=O)COCCOCCNC(=O)COCCOCCNC(=O)CC[C@H](NC(=O)CCCCCCCCCCCCCCCCC(=O)O)C(=O)O)C(=O)NCC(=O)NCC(=O)N[C@@H](CO)C(=O)N[C@@H](CCSC)C(=O)N[C@H](C(=O)N[C@@H](CCCCNc1c(NCCCCCN(O)C(=O)CCC(=O)NCCCCCN(O)C(=O)CCC(=O)NCCCCCN(O)C(C)=O)c(=O)c1=O)C(=O)O)C(C)C)C(C)C [zirconium-89 labelled]
tissue uptake (ex vivo gamma counting; Sprague-Dawley rat, brain; intravenous, dose not given, 24 h): 0.009 %ID/g

COc1cc2c(Oc3ccc4[nH]c(C)cc4c3F)ccnc2cc1OCC1(N)CC1
grade 1 or 2 Hyperuricemia (paediatric recurrent refractory sarcoma; 8 mg/kg): 6.7%

C[C@@H]1OC(=O)NN=C1c1ccc(-c2ccc(F)cc2)c(C(F)(F)F)c1
patients with adverse event (phase I trial, measured: Dyspnoea all grades; human patients; dose not given, all dose groups): 20%

CC(C)CC(=O)OC[C@H]1O[C@@](C#N)(c2ccc3c(N)ncnn23)[C@H](O)[C@@H]1O
remaining compound (Rats plasma; 5 µM, 30 min): 0.012%

O=S(=O)(Nc1ccccc1)c1ccc(NC(=S)Nc2ccccc2)cc1
relative organ weight (mouse, male, lung; oral, 5 mg/kg daily, 14 days; baseline: body weight): 0.84%

C[C@]1(CO)Cc2ncn(-c3ccc(C#N)c(Cl)c3)c2C(=O)O1
subjects with drug-related dizziness (human; 20 mg multiple doses, fasted): 0%

CCN1[C@@H](C(=O)NC23CCC(C(=O)O)(CC2)CC3)[C@H](c2cccc(Cl)c2F)[C@]2(C(=O)Nc3cc(Cl)ccc32)C12CCCCC2
grade 3/4 neutropenia incidence (patients with advanced solid tumours; oral, dose not given, all doses): 23.8%

CC(C)=CC1C(C(=O)OC(C#N)c2cccc(Oc3ccccc3)c2)C1(C)C (centres unmarked)
enzyme contribution to clearance (measured: CYP2C19; human, age 1 year): 0.77%

O=C1Nc2cc3[nH]nc(-c4ccncc4)c3cc2CN1Cc1ccccc1
patients with QTc prolongation (CTCAE v4.03; human, relapsed or refractory advanced solid tumours; intravenous, 6.4 mg/kg): 0%

CCCCCCCCCCCCCCCC(=O)N[C@@H](CCC(=O)NCCCC[C@H](NC(=O)[C@H](CC(=O)O)NC(=O)[C@H](CO)NC(=O)[C@@H](NC(=O)[C@H](Cc1ccccc1)NC(=O)[C@@H](NC(=O)CNC(=O)[C@H](CCC(N)=O)NC(=O)[C@H](CO)NC(=O)[C@@H](N)Cc1c[nH]cn1)[C@@H](C)O)[C@@H](C)O)C(=O)N[C@@H](CO)C(=O)N[C@@H](CCC(=O)O)C(=O)N[C@@H](Cc1ccc(O)cc1)C(=O)N[C@@H](CC(C)C)C(=O)N[C@@H](CC(=O)O)C(=O)N[C@@H](CO)C(=O)N[C@@H](CCC(=O)O)C(=O)N[C@@H](CCCNC(=N)N)C(=O)N[C@@H](C)C(=O)N[C@@H](CCCNC(=N)N)C(=O)N[C@@H](CC(=O)O)C(=O)N[C@@H](Cc1ccccc1)C(=O)N[C@H](C(=O)N[C@@H](C)C(=O)N[C@@H](Cc1c[nH]c2ccccc12)C(=O)N[C@@H](CC(C)C)C(=O)N[C@@H](CCC(=O)O)C(=O)N[C@@H](C)C(=O)NCC(=O)NCC(=O)O)C(C)C)C(=O)O
treatment-related adverse events (measured: Nausea; humans all renal groups; subcutaneous, 100 µg single dose): 32.4%

CN1CC[C@@H](c2c(O)cc(O)c3c(=O)cc(-c4ccc(C(F)(F)F)cc4Cl)oc23)[C@@H]1CO
patients with adverse event (measured: Hyperglycemia; relapsed B-cell malignancies; oral, 100 mg, grade 3-4, intermittent dosing): 0%

NC(=O)[C@H]1CCN(c2ncnc(N)c2F)C[C@@H]1N1CCC[C@@H](Nc2cc(Cl)cc(C(F)(F)F)c2)C1=O
grade ≥3 neutropenia (B-cell malignancy patients; oral, 246 mg twice daily, dose): 0%

CC(C)C[C@H](NC(=O)[C@H](CCCCN)NC(=O)OCC1c2ccccc2-c2ccccc21)C(=O)N[C@H](C(=O)N[C@@H](Cc1ccccc1)C(=O)N[C@@H](Cc1ccccc1)C(=O)N[C@@H](CCCCN)C(=O)NCC(=O)N[C@@H](Cc1ccccc1)C(=O)N[C@@H](C)C(=O)N[C@@H](Cc1c[nH]c2ccccc12)C(=O)N[C@@H](CC(N)=O)C(=O)N[C@H](C(=O)N[C@H]1CSSC[C@@H](C(=O)N[C@@H](Cc2c[nH]cn2)C(=O)N[C@@H](CCCNC(=N)N)C(=O)N[C@@H](CCCNC(=N)N)C(=O)N[C@@H](C)C(=O)N[C@@H](CC(N)=O)C(N)=O)NC(=O)[C@H](C(C)C)NC(=O)[C@H](CCCNC(=N)N)NC(=O)[C@H](C(C)C)NC(=O)CNC(=O)[C@H](CC(N)=O)NC(=O)[C@H](CCCNC(=N)N)NC(=O)[C@H](Cc2ccc(O)cc2)NC(=O)[C@H](C(C)C)NC1=O)C(C)C)C(C)C
lachrymation score (ICR mouse; ip, 10 mg/kg; direction not given): 0
